Experimental data pooled from the literature.
Each numbered part is a random draw from the data of one study; scales do not carry over between parts.

Series 1
Target: RING finger protein unkempt homolog, zinc fingers 1-6, GST-SBP tag (UNK, Homo sapiens, UniProt Q9C0B0, residues 30-357)
Technique: RNA Bind-n-Seq
Form: RNA
Sample: in vitro
Tested at: not given
Setting: RNA with constant flanks, human and mouse sites, ends assumed
Relative to: input RNA pool
Reading: higher = stronger binding
Shared flanks, not repeated: GGGAGUUCUACAGUCCGACGAUC … CAACAGAGGAUUGAGCAUCA
Target sequence (chain): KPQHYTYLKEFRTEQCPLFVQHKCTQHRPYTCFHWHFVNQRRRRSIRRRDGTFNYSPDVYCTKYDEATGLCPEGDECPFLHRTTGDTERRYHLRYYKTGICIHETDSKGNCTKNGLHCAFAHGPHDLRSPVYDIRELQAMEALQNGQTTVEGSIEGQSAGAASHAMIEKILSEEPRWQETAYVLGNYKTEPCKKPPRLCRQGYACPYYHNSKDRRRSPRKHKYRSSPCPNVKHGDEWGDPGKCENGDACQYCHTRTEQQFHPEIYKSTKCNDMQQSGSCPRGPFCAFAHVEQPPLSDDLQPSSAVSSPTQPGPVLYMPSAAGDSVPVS
| Oligonucleotide | bound/input enrichment |
| --- | --- |
| CUGGACGAGUUUCUAGUGAAAAAUGACCCCUGCCGAGCACGAGGCAGAACUAACAUAGAACUUAGAGAGAAAUUCAUCCUGCCAGAAGGGGCAUCUCAGGGGAUGACUCCAUUCCGGUCA | 0.46 ratio |
| GAUUCUACCUCUGCAGUCAAAGAGAAAACAGCAACUUGCCACAGUUCCUCUUCUCCACCAAUAGAUGCAGCAUCCGCAGAGCCCUAUGGCUUCCGUGCCUCAGUGUUAUUCGAUACAAUG | 0.153 ratio |
| GCAGCGGCGGCAGCUGGUGCGGCUUCUGGGCUGCCGGGUCCAGUGGCACAGGGAUUGAAGGAGGCGUUGGUGGAUACCCUCACCGGAAUCCUGUCCCCGGUGCAGGAGGUGCGGGCGGCU | 0.154 ratio |
| AUGCUGACUGGUAAAACCCUUUUUGCAGGUGCACAUGAACUUGAACAGAUGCAGCUGAUUUUAGAAUCUAUUCCUGUUGUACAUGAGGAAGAUCGUCAGGAGCUUCUCAGCGUAAUUCCA | 0.305 ratio |
| AAGCCCUUCUCCCUGGCGCCACGAGGUGCCUUCUUCCAGGAGAUGAGCAGCAGCGAUGUGAGCUCCAAGCUUACGCUCCUCACCUUGCACUUCCCGCGUUUGCGGCUGCUCUGGUGCCCC | 0.119 ratio |
| CCUCCCUUUGCUACUGGACUGCCUCACUAUGGACACAUACUUGCUGGGACAAUCAAAGAUAUCGUUACGAGAUACGCUCACCAGAGCGGGUUUCACGUUGACAGAAGAUUCGGGUGGGAC | 0.184 ratio |
| GAACAUUUGGCUGUUCGUUUUAAACUACAGGAUGUUGCAGACUCAUUUAAGAAAAUUUUUGAUGAAGCAAAAACAGCCCAAGAAAAAGAUUCAUUGAUAACACCUCAUGUUUCUCAUCUG | 0.0842 ratio |
| GUUGGAGCAGGCCAGGGAUUGAGGCCCACCUUCCCACAUAUACCAAGUAGAUAUGGAAUCAACAGGAUGGGGCAGCCAAGACCCUGACAGACUCUAACUUAUUGUGAUGGGGAAUAGCGA | 0.611 ratio |

Series 2
Target: Sal-like protein 4, full length isoform A (SALL4, Homo sapiens, UniProt Q9UJQ4, residues 1-1053)
Sequence of UniProt Q9UJQ4 (whole entry, looked up): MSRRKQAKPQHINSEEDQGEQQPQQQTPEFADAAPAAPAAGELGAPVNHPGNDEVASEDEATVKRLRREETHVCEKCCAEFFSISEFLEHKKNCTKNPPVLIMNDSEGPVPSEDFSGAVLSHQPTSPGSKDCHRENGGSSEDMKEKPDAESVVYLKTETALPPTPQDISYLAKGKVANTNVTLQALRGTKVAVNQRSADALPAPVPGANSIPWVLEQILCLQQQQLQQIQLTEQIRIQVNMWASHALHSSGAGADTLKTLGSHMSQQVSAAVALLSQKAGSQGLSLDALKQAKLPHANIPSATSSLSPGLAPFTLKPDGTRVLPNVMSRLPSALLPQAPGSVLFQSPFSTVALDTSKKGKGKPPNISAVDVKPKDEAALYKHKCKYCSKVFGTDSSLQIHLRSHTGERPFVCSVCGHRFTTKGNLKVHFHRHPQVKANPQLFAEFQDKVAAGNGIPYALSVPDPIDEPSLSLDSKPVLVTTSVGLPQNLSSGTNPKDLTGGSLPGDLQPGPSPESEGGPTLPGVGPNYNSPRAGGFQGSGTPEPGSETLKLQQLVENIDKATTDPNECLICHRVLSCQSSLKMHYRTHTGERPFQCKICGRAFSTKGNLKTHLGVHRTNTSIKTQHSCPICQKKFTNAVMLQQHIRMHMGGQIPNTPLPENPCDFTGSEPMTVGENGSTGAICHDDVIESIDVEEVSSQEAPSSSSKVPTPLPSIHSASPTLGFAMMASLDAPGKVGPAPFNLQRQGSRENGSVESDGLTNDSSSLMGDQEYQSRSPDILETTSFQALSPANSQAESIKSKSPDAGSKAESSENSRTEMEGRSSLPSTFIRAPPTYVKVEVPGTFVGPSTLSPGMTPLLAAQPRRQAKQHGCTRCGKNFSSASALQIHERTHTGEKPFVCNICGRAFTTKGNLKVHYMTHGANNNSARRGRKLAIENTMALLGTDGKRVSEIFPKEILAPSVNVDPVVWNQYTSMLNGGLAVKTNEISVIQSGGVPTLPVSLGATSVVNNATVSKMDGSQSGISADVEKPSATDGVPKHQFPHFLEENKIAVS
Technique: universal PBM
Form: double-stranded DNA, one strand shown
Sample: in vitro
Tested at: 600 nM
Setting: 8-mer, flanks averaged, mean of replicates
Reading: higher = stronger binding
| Oligonucleotide | E-score |
| --- | --- |
| GCCGGTGA | -0.277 |
| GGGCGCTA | -0.318 |
| GTGGCGAA | -0.0838 |
| GATTTTTA | 0.278 |
| CACAGAAC | 0.0114 |
| CATCTGCA | -0.00839 |
| CATTCTAA | 0.113 |
| GTAATTCA | 0.232 |
| ACTCGCGC | -0.169 |
| CACTACGC | -0.225 |
| CAAGCTTC | -0.0306 |
| ATCGATAA | 0.225 |
| AACGGCAT | 0.107 |
| ATGGGGAA | 0.0313 |
| CGTGAAAG | 0.145 |
| AGATAGAA | 0.107 |
| GAAACCCC | -0.292 |
| CTACCGGA | -0.31 |
| GAGTGTCC | -0.234 |
| AAGTAAAG | 0.187 |
| ACGGGGAG | -0.359 |
| CTGTCAAC | -0.149 |
| ACCCCGCA | -0.277 |

Series 3
Target: RNA binding protein fox-1 homolog 2, RRM domain, GST-SBP tag (RBFOX2, Homo sapiens, UniProt O43251-10, residues 100-194)
Technique: RNA Bind-n-Seq
Form: RNA
Sample: in vitro
Tested at: 365 nM
Setting: natural RNA segment, single round, ends assumed
Relative to: no-protein control
Reading: higher = stronger binding
Shared flanks, not repeated: GGGAGUUCUACAGUCCGACGAUC … UGGAAUUCUCGGGUGCCAA
| Oligonucleotide | RBNS enrichment (R) |
| --- | --- |
| AUGGGCGCCUGGGUGUGGUCUUGUUAAAUCGGUGUCGCACAUUUUAAUCGGUAAUCUGCUGGCUUGUUUGUUAACCAGAACGAUGAAUUUAUCAGUGAUUUGUAAGUUUC | 5.32 |
| GGUGAUGGUAGUGGUCAGAAAUGGCUUUUGCUUUGGUAAUAAGUGAAUUUUAUUCCCCAAGAGUCUCAGGCAUCAGAAGUACUUGGCAUCUUAAUCCAAGCAAAAAUAAG | 0.369 |
| GGAUAGCACAACGUUUGGAGACGUGACAAAUGCUCUUACCCUUUGGAGACAAAAGUCCUAUUUUCUGUUUUCUUUUGUCUUUUGAUCUUUAAUUCACUAAUUAAUAGUGA | 0.569 |
| UGACUUGCACAAUUCUUUGGGAAGAAACUGCACACCCAUAGGACAGUCGAUAAGGCUGAGUCGGGGAGGCUCAGACCAUUGAGGCUUGAAAUUGCAAAACUCUUGUAGCU | 0.444 |
| AUUAAAAUAUUCUCCUUUCGUCUUCAUAUUUACCUUCUGAGGUAAUUUUUUAACUUAAUGUGUUACUACAAAGAUUUGCAGAUCUUUAAUCAAGCACUAUGUUAAUACUG | 0.646 |
| AUUUUUAAUGUGUACUGUAAAACUUGAAAUACUCAGGAGCUGAGUGAAUAUGUUUGUUGCUACUUACAAUCCCGACCUGUUAGUCCCAGUAGUUUUGUUUUAACAUGGUC | 0.912 |
| GCUAUGAGGGCUCGGGGCUUGCAGGCUCUGAGGGCAUGUCGCAGGCGAGCUGGAAGGAAGCGCUCUCACUUUUUUUCAGGCAAUGUUGCUAGCCCUUCUAGCACACUGAG | 7.6 |
| UUUUGCCAUUUUUGAAAGUAUUAGUAAAAUCAUGGAAUACAUCACAGAACAGCUGUCCAUCAGUGAGCUUGUACAGUGCUGAUUUGCAGCUCCAACAUGCGGGAUGUUCA | 1.3 |

Series 4
Target: Centromere-binding protein 1, full length, His-tagged (CBF1, Saccharomyces cerevisiae, UniProt P17106, residues 1-351)
Sequence of UniProt P17106 (whole entry, looked up): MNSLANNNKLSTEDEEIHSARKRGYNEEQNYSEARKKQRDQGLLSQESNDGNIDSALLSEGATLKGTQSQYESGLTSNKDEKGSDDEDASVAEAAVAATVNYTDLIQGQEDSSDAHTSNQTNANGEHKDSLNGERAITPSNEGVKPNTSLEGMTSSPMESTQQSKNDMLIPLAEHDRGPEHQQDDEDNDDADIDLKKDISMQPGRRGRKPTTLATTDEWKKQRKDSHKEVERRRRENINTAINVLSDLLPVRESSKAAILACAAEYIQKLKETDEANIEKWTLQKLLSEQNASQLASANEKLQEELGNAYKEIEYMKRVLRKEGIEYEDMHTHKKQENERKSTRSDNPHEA
Technique: competition protein-binding microarray
Form: double-stranded DNA, one strand shown
Sample: in vitro
Tested at: 2 µM
Setting: whole 60-bp probe, lowest competitor level
Added: Pho4 competitor, 0.05 µM
Reading: higher = stronger binding
Shared flanks, not repeated: … GTCTTGATTCGCTTGACGCTGCTG
| Oligonucleotide | fluorescence intensity |
| --- | --- |
| GCATATGCCTTCTGGCACGTGTCCATCTGCATACTA | 2500 a.u. |
| GTTGAATAAAGATTTCACGTGACTCGAGCTGGTCTT | 6570 a.u. |
| TCCCAAGACCATACCCACGATGAAATTAAAGACACT | 89.5 a.u. |
| GTCTTGTCTCATTGTTACGTGGGTGTCCCCACTTCA | 93.2 a.u. |
| AGAGCCGATACGGCACCCGTGCGATACGAGACAGGA | 65 a.u. |
| CAGCATTAGCTAAAACACGTTAATATGGTGGAGTCA | 79.8 a.u. |
| TTTCCAAGCCGCCGTCACGGCTGAATACCTGGCCAA | 66.6 a.u. |
| CGAGTCTAATGACTTGACGTGGCCGTTTTTCTTGTC | 72.3 a.u. |
| CTAACGAAGGTTTTGCACGTGTTTTACAAGCCAAGT | 2160 a.u. |
| AAATTACTAAGTTTTCACGTGCAATACCCCGTATGA | 1090 a.u. |
| TCTTGTTACATCCGTCACGGCATTCCAGCTGTAAAA | 81.5 a.u. |
| CTTCTGTAAATTTGAGCTGTGGGTGGACGCGCCCCG | 81.1 a.u. |
| AGGACAAGTTGTAGTCACCTGGCAAACCGAAAACGG | 157 a.u. |
| TTATTCCGCCGATTCCACGGGTGCGGTGCTACCAAG | 54 a.u. |
| ATACTTTTATCGGCCCATGTGTGCCTAGTCAGCTCG | 133 a.u. |
| AAATTACTAAGTTTCCACGTGTTTTACCCCGTATGA | 771 a.u. |
| AAATTACTAAGTTGCACGGTGGGTGACGCCGTATGA | 67.7 a.u. |
